Results of several laboratories.
A part holds a random share of what one study measured. Several values in a cell are separate wells, animals, samples, runs or records.
UniProt P49761, sequence (whole entry, looked up): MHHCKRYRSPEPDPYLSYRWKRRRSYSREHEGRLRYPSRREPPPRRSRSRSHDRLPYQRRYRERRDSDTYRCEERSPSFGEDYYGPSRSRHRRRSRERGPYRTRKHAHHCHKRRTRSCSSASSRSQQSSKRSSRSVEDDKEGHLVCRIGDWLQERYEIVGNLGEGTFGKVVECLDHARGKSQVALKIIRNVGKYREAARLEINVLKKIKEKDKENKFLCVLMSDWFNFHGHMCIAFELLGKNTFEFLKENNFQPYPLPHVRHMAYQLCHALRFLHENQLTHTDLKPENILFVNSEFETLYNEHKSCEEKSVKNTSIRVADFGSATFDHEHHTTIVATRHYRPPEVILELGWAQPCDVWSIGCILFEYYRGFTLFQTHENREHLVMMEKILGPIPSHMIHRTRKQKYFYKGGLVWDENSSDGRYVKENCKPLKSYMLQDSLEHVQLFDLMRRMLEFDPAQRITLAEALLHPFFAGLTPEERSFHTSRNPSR
UniProt P54760, sequence (whole entry, looked up): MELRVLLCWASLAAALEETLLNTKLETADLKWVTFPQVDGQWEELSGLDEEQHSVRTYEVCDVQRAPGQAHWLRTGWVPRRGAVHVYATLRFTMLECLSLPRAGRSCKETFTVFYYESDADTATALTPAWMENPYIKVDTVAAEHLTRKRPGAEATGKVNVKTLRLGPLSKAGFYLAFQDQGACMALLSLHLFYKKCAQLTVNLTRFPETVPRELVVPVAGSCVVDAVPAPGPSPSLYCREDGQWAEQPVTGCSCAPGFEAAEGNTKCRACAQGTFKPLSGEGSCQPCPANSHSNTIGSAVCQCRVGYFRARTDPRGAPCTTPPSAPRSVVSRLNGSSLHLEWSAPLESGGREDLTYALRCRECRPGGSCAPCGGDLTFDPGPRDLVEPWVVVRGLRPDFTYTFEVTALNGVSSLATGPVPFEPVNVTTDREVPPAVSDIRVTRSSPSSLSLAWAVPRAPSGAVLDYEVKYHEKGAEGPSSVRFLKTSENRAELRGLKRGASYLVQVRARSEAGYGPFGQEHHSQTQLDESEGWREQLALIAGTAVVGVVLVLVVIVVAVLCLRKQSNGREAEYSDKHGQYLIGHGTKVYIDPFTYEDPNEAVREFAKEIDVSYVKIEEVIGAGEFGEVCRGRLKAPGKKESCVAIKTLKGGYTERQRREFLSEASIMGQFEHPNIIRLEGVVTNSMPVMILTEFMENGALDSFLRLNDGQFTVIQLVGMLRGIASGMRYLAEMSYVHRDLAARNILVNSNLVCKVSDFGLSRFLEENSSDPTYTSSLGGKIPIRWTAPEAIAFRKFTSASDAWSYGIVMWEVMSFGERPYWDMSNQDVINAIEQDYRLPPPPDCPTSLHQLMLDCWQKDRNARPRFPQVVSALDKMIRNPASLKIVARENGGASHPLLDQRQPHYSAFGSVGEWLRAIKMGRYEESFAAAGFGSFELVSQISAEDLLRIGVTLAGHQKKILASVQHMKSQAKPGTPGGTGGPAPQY
UniProt P45984, sequence (whole entry, looked up): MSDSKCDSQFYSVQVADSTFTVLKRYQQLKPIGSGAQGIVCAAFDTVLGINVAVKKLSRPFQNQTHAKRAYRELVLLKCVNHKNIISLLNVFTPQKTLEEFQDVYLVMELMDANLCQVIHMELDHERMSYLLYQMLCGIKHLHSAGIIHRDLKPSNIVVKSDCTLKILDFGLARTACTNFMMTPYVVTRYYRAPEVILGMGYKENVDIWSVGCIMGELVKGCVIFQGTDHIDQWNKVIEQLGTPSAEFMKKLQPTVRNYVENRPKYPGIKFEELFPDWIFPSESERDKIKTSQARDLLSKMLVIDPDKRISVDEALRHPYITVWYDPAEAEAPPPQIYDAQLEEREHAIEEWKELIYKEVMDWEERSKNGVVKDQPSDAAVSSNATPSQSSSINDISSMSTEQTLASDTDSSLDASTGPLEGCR
UniProt Q9P1W9, sequence (whole entry, looked up): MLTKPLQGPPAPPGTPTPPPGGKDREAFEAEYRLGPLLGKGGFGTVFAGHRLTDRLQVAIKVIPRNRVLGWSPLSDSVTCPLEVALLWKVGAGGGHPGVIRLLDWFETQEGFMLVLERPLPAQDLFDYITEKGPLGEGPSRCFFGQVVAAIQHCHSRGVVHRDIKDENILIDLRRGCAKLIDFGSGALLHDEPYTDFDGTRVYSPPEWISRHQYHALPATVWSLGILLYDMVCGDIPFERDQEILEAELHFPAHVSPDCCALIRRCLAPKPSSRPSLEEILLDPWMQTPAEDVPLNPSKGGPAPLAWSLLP
UniProt Q08881, sequence (whole entry, looked up): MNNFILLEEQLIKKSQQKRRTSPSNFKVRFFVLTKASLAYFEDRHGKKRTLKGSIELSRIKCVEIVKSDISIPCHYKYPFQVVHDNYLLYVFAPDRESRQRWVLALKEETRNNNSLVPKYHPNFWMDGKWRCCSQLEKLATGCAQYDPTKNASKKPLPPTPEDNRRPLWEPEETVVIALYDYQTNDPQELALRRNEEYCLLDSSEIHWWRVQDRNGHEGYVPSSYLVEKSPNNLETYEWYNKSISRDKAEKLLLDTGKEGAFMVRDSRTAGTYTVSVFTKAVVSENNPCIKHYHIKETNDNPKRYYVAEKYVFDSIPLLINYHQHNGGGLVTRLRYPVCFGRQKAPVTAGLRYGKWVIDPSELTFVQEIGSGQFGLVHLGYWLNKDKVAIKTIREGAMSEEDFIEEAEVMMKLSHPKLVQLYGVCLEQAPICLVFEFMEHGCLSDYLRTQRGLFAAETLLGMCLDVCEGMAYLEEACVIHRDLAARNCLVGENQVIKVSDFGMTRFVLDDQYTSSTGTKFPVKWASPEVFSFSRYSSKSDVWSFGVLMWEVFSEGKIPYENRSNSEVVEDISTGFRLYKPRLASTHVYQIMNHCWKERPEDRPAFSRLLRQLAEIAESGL
UniProt Q9BZL6, sequence (whole entry, looked up): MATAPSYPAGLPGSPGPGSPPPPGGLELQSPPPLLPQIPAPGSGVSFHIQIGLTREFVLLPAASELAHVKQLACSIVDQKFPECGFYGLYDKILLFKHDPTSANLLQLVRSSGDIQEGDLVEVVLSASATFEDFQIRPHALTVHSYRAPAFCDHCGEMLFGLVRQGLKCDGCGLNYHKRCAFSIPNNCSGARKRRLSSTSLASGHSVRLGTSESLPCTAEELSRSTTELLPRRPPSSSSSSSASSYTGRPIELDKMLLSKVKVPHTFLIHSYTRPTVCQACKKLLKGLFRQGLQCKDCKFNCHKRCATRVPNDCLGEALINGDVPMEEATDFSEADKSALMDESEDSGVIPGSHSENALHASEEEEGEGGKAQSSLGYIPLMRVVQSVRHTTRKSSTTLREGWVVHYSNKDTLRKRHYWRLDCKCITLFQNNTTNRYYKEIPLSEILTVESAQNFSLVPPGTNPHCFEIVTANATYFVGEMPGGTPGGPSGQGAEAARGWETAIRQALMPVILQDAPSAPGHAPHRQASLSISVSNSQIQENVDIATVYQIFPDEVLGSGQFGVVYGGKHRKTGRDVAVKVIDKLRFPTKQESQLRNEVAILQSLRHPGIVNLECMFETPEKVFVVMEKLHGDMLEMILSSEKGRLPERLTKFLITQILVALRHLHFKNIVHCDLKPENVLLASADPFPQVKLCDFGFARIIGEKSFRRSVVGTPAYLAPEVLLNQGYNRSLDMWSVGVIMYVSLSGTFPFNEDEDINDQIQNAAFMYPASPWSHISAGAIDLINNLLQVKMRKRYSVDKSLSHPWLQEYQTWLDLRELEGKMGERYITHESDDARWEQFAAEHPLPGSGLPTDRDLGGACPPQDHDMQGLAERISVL
UniProt Q13163, sequence (whole entry, looked up): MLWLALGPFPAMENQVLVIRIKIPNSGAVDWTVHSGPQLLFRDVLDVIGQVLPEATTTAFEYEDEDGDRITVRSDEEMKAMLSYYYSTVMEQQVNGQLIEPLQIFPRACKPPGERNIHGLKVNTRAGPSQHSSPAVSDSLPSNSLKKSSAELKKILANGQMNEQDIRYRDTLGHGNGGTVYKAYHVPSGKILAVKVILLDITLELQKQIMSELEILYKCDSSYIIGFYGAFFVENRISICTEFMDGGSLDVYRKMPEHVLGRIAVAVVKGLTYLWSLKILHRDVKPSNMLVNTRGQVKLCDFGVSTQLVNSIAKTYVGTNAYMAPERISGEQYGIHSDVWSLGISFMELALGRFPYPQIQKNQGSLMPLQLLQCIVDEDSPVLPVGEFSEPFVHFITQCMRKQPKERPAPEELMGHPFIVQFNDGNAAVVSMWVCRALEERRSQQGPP
UniProt Q00536, sequence (whole entry, looked up): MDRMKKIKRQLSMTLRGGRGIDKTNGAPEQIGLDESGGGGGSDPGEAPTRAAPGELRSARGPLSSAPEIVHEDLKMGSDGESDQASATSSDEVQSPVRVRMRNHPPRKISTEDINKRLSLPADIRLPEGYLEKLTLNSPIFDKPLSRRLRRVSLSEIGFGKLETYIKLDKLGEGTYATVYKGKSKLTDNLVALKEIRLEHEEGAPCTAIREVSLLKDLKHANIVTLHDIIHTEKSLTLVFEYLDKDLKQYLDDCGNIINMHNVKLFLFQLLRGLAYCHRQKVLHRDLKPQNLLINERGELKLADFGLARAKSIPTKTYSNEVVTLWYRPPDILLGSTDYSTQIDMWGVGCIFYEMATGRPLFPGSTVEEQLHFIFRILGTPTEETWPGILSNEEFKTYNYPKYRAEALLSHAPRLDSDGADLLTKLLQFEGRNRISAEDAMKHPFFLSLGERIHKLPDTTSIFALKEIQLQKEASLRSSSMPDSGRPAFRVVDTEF

Study 1
Host: mouse
Matrix: microsomes or S9
Concentration: 2 µM
Time: 0.5 h
| SMILES | remaining compound [%] |
| --- | --- |
| COc1ccc(Br)c2[nH]c(=O)cc(CCO)c12 | 0.91 |
| Cc1ccc(C2c3nc[nH]c3CCN2C(=O)Nc2ccc(C#N)cc2)cc1F (stereo not shown) | 33.4 |
| c1ccc(COc2ccccc2-c2cscn2)cc1 | 5.96 |
| CC(Oc1ccc(Cl)cc1Cl)C(=O)NCCc1ccccc1 (stereo not shown) | 15.4 |
| CC(C)NC(=O)NC(=O)C(C)N(C)Cc1ccccc1Br (stereo not shown) | 2.14 |
| c1ccc(-c2noc(Cc3cn4ccccc4n3)n2)nc1 | 34.2 |

Study 2
Cell line: mouse MPNST tumor cells
Technique: high-content nuclear imaging
Measured: cell number
Concentration: 10 µM
Time: 12 h
Setting: mean of 2 replicates
Relative to: plate mean
Direction: higher = more cells
| SMILES | nuclei count |
| --- | --- |
| Nc1nc(=S)c2ncn([C@@H]3O[C@H](CO)[C@@H](O)[C@H]3O)c2[nH]1 | -2.52 z-score |
| CN[C@H](CC(C)C)C(=O)N[C@H]1C(=O)N[C@@H](CC(N)=O)C(=O)N[C@H]2C(=O)N[C@H]3C(=O)N[C@H](C(=O)N[C@H](C(=O)O)c4cc(O)cc(O)c4-c4cc3ccc4O)[C@H](O)c3ccc(c(Cl)c3)Oc3cc2cc(c3O[C@@H]2O[C@H](CO)[C@@H](O)[C@H](O)[C@H]2O[C@H]2C[C@](C)(N)[C@H](O)[C@H](C)O2)Oc2ccc(cc2Cl)[C@H]1O | 1.28 z-score |
| Cc1oc2ccccc2c1CNC(=O)NCc1cccs1 | 0.12 z-score |
| C/C=C(/C(=C/C)c1ccc(O)cc1)c1ccc(O)cc1 | 0.175 z-score |
| N[C@@H](CCNCc1ccc(Cl)cc1)C(=O)N1CCCCC1 | 1.61 z-score |
| NNC(=O)c1ccncc1 | 1.23 z-score and 2.24 z-score |

Study 3
SMILES: O=C(NS(=O)(=O)c1ccc(NCC2CCOCC2)c([N+](=O)[O-])c1)c1ccc(N2CCN(Cc3ccc(C(F)(F)F)cc3-c3ccc(Cl)cc3)CC2)cc1Oc1cnc2[nH]ccc2c1
Observed: cell-free assay
Technique: competition with immobilised ligand
Concentration: 1 µM
| target | remaining binding [%] |
| --- | --- |
| PIM2 (Homo sapiens, UniProt Q9P1W9) | 73 |
| MAP2K5 (Homo sapiens, UniProt Q13163) | 75 |
| EPHB4 (Homo sapiens, UniProt P54760) | 100 |
| PRKD2 (Homo sapiens, UniProt Q9BZL6) | 100 |
| CDK16 (Homo sapiens, UniProt Q00536) | 67 |
| GRK7 (Homo sapiens, UniProt Q8WTQ7) | 78 |
| ITK (Homo sapiens, UniProt Q08881) | 100 |
| PHKG2 (Homo sapiens, UniProt P15735) | 83 |
| NIM1K (Homo sapiens, UniProt Q8IY84) | 94 |
| CLK3 (Homo sapiens, UniProt P49761) | 100 |
| MAPK9 (Homo sapiens, UniProt P45984) | 85 |

Study 4
Organism: Sarcocystis neurona
Observed: parasite activity
Concentration: 10 µM
Time: 96 h
| Compound | activity class |
| --- | --- |
| O=C(O)c1cc(=O)c2c(OCC(O)COc3cccc4oc(C(=O)O)cc(=O)c34)cccc2o1 | inactive |
| C#C[C@]1(O)CC[C@H]2[C@@H]3[C@H](C)CC4=C(CCC(=O)C4)[C@H]3CC[C@@]21C | inactive |
| Cc1c(OCC(F)(F)F)ccnc1C[S+]([O-])c1nc2ccccc2[nH]1 (stereo not shown) | inactive |
| CCC1=C(C)CN(C(=O)NCCc2ccc(S(=O)(=O)NC(=O)N[C@H]3CC[C@H](C)CC3)cc2)C1=O | inactive |
| CC(=O)O[C@]1(C(C)=O)CC[C@H]2[C@@H]3C[C@H](C)C4=CC(=O)CC[C@]4(C)[C@H]3CC[C@@]21C | inactive |
